Results collected from several papers.
Parts stem from different laboratories: compare values within a part only. Substitutions count along the parent as printed.

Set 1
Target: Ras GTPase-activating protein-binding protein 1, full length (G3BP1, Homo sapiens, UniProt Q13283)
UniProt Q13283, sequence (whole entry, looked up): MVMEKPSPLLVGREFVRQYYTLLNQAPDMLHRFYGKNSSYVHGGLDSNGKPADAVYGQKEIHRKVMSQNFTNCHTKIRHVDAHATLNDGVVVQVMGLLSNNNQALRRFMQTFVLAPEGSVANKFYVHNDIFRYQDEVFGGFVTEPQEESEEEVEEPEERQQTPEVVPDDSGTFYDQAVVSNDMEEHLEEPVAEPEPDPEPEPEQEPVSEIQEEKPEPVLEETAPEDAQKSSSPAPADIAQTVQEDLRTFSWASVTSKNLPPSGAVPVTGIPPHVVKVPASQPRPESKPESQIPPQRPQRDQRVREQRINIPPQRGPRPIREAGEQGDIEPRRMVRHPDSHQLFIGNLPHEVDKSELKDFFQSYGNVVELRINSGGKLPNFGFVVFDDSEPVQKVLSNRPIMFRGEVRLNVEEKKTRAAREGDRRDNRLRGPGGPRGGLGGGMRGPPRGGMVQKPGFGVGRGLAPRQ
Technique: RNA Bind-n-Seq
Molecule type: RNA
Matrix: in vitro
Concentration: 200 nM
Notes: whole 134-nt RNA, ends assumed
Added: 150 mM KCl
Reference: input library
Reading: higher = stronger binding
| Sequence | log2 enrichment |
| --- | --- |
| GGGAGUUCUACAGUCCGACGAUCUCCUGUGCUACACAUCGUAUGUACCGAAUCGGCCCCCCGGCCCCCCGGGCCCCCCGGGGAAAGUAUUAUGUUACGCCGUUCGGAUCUGCAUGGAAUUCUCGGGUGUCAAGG | -0.331 |
| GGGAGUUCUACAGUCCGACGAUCUGGGAGGUGGAUUUGGUUUAUUUUUUUAGCUCAUUUCCAGGGGUGGGAAUUUUUUUUUAAUAUGUGUCAUGAAUAAAGUUGUUUUUGAAAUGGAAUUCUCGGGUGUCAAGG | 0.0178 |
| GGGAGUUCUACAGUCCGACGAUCCUCAAGUCCUGUGCUACACAUCGUAUGUACCGAAUCGGGGCGGGGCGGGCGGGGAAAGUAUUAUGUUACGCCGUUCGGAUCUGCACUUCCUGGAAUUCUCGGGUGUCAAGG | 1.39 |
| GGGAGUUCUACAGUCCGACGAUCAGUCCUGUGCUACACAUCGUAUGUACCGAAUCGGGUUUUUGGGAAAAAGGGUUUGGGAAAGUAUUAUGUUACGCCGUUCGGAUCUGCACUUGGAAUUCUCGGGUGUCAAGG | -0.368 |
| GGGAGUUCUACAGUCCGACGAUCCUGUGCUACACAUCGUAUGUACCGAAUCGGCCCCCCCGGGGCCCCCCCGGGGCCCCCCCGGGAAAGUAUUAUGUUACGCCGUUCGGAUCUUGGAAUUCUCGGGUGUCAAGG | -1.84 |
| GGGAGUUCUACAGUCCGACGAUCCCUCAAGUCCUGUGCUACACAUCGUAUGUACCGAAUCGGGCGGGGCGGGCGGAAAGUAUUAUGUUACGCCGUUCGGAUCUGCACUUCCAGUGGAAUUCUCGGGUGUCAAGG | 0.645 |
| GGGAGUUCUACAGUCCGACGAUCGUCCUGUGCUACACAUCGUAUGUACCGAAUCGGGUUUUGGGGUUUUGGGGUUUUGGGGAAAGUAUUAUGUUACGCCGUUCGGAUCUGCACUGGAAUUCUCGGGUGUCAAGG | 0.0338 |
| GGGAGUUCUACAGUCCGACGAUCCCUGUGCUACACAUCGUAUGUACCGAAUCGGGGUUUGGGGUUUUUGGGGAAAAAAAGGGGAAAGUAUUAUGUUACGCCGUUCGGAUCUGCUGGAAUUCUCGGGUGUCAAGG | 0.156 |
| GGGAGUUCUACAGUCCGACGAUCACCAUGCAGGUGGGCAUCUUUGGGAAGUGGGGCAAGGGGGGGAUAGGGAGAAAGGUAACACUUUGGGAACAGGUGGUCCCAGGUCGUUUCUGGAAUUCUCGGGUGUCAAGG | 1.22 |
| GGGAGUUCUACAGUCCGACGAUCCACAGACAACACGCACCCACACAGACACAGAGGGAAGGGGUUGGGAUGGGGACAGGGUGCACAGCAGGGCGGGGUAGGACCCCACCCCCUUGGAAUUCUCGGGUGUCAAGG | 1.93 |

Set 2
Target: ABI1, truncated, D143A, DHFR fusion (Arabidopsis thaliana)
Technique: DHFR PCA, deep sequencing
Matrix: yeast
Notes: methotrexate growth selection, single substitutions
Added: (+)-ABA 2500 µM
Reference: wild-type fitted maximum
Reading: higher = stronger binding
Starting sequence: PYL1, truncated, DHFR fusion (Arabidopsis thaliana); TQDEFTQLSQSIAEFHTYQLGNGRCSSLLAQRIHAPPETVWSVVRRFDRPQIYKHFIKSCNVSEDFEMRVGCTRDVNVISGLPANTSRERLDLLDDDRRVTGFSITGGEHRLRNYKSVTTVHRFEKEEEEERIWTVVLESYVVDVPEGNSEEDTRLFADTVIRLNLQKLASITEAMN
| Change | relative binding score [%] |
| --- | --- |
| I57E | 18.8 |
| S104D | 57.5 |
| P50C | 83.4 |
| I79A | 99.1 |
| T17R | 99.8 |
| S27N | 104 |
| S63M | 87.3 |
| D75V | 96.9 |
| H110A | 68.9 |
| V143L | 86.8 |
| D95F | 66.1 |
| L8N | 87.5 |
| E128A | 101 |
| R49Y | 97.1 |
| D95H | 88.2 |

Set 3
Target: BATF, bZIP domain (human)
Technique: DHFR protein complementation
Matrix: yeast
Notes: single substitutions, most at no-binding floor
Reference: wild-type JUN-FOS pair
Reading: higher = stronger binding
Starting sequence: JUN, bZIP domain (human); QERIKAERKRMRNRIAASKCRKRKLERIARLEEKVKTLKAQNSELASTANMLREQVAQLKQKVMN; partner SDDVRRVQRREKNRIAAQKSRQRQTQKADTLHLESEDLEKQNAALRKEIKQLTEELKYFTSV
| Change | binding fitness |
| --- | --- |
| R53M | -0.423 natural log |
| T37I | 0.0286 natural log |
| E54D | -0.0692 natural log |
| K34I | -0.0879 natural log |
| M51S | 0.0205 natural log |
| A40H | -0.0353 natural log |
| A57C | -0.309 natural log |
| T48N | -0.209 natural log |
| L38S | -0.705 natural log |
| A29C | -0.184 natural log |
| Q55D | -0.34 natural log |
| V35A | -0.358 natural log |
| E33T | -0.193 natural log |
| L31F | -0.183 natural log |
| T37W | -0.0127 natural log |
| L45H | -1.02 natural log |

Set 4
Target: Phosphate system positive regulatory protein PHO4, full length, GST-tagged (PHO4, Saccharomyces cerevisiae, UniProt P07270, residues 1-312)
Technique: competition protein-binding microarray
Molecule type: double-stranded DNA, one strand shown
Matrix: in vitro
Concentration: 2 µM
Notes: whole 60-bp probe, lowest competitor level
Added: Cbf1 competitor, 0.05 µM
Reading: higher = stronger binding
Residues (chain): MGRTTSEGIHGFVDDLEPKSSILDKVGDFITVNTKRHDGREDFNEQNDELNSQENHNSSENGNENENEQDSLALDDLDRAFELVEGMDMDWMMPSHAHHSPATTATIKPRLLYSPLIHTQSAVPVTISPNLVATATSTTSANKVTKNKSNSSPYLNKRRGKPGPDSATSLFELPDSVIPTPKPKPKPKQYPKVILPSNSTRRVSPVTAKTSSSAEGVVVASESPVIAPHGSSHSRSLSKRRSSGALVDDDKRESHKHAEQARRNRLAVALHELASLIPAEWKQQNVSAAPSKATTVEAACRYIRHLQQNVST
| Sequence | fluorescence intensity [a.u.] |
| --- | --- |
| GGGGCTGTCCCGCCCCACGTGGACCGGCTCCCCGCTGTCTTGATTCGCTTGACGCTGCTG | 17600 |
| ACAATGGTGGGATGGCCCGTGGGTAAGTCGTGTAGTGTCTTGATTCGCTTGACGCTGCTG | 12700 |
| CGCCGTCCTGTAATCCATGTGGCAAGTCCACCGTAAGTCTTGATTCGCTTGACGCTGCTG | 6940 |
| CGCTATGCCATCAGTGATGTGATGAGCAATGCCGGAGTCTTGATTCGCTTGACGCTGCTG | 3390 |
| GCGCAATTCGCCAAGTTCGTGACGGAATTCTTCGGGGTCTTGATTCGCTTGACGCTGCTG | 3860 |
| AAAGTTCTTTTTCAACACGTGCTTTTAATCAGCATTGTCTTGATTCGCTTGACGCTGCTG | 16500 |
| CCGCTTGTGCCTACCCACGTGGTGAGCAATCTTCTCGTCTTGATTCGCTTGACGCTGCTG | 21900 |
| TGTGTCATCTTCGCGCGCGTGCTAAAAAAAACGAATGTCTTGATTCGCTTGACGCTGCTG | 13400 |
| TTCTGCGCAGAGAAAGGCGTGCAAAGTCCGTTTGACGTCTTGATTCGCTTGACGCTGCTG | 6870 |
| CTTTCCCGATCTTGCTTTGTGGGTGTAGCACATTTGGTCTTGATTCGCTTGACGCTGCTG | 4580 |
| AGAGATTTACGATCTAGCGTGGTTACCTAATAACAGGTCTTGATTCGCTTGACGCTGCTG | 5350 |
| TGCGCAACAACTTGTCACGGAACTTTATGTCTAGAAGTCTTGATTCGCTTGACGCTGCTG | 3350 |
| TTCTTTACCGTTTTGCACGTGCGATGCGAAAAGTATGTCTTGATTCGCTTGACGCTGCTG | 17900 |
| CCTTGATGGTTCCGTCACGGGAACCAGAGATAATCAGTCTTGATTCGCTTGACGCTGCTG | 5020 |
| CTTTCCCGATCTTGTCACGTTACTTTAGCACATTTGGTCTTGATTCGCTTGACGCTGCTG | 7300 |
| GTAATTTCAATAGCTCGCGTGGCCGAATGGCAACGCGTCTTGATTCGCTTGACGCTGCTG | 7770 |

Set 5
Target: CCNE1, cyclin fold, Cln2 fusion (human)
Technique: yeast growth competition, sequencing
Matrix: yeast
Notes: strong parent motif
Reference: not given
Reading: higher = stronger binding
Starting sequence: PKMYT1 docking peptide (human); SFEPRNLLSLFED
| Change | normalised enrichment score |
| --- | --- |
| S1M | 2.57 |
| P4S | 0.884 |
| P4R | 1.08 |
| L10N | 1.86 |
| D13S | 1.93 |
| L7M | 0.354 |
| E3Q | 2.27 |
| E3N | 1.75 |
| S9A | 1.94 |
| L8Q | 0.831 |
| L8M | 2.41 |
| L10Q | 2.08 |
| P4C | 1.47 |
| R5M | 1.48 |
| R5F | 0.433 |

Repeated from above (set 3):
| Change | binding fitness |
| --- | --- |
| Q55D | -0.34 natural log |
| T48N | -0.209 natural log |
| A29C | -0.184 natural log |
| V35A | -0.358 natural log |
| L45H | -1.02 natural log |
| A40H | -0.0353 natural log |
| K34I | -0.0879 natural log |
| E33T | -0.193 natural log |
| R53M | -0.423 natural log |
| L31F | -0.183 natural log |
| L38S | -0.705 natural log |
